# Measured values from different studies.
# Lines come from different studies, so protocols differ. ± gives the spread as reported.
# cathepsin H: cathepsin H (Capra hircus, UniProt A0A452G5L2)
# MAPK14: Mitogen-activated protein kinase 14 (MAPK14, Homo sapiens, UniProt Q16539)
# Nos1: Nitric oxide synthase 1 (Nos1, Rattus norvegicus, UniProt P29476)
Structure (SMILES),target,assay,system,setting,Ki [µM]
COC(=O)[C@@H](CS)N1C(=O)c2ccc(N(C)C)cc2C1=O,"Metallo-beta-lactamase type 2 (Serratia marcescens, UniProt P52699)","enzyme activity, inhibitor",,"Km 4.8 µM, together with: chromacef 25 µM",0.0052 ± 0.0008
COc1cccc(/C=C/C(=N\NC(N)=O)c2ccccc2)c1,cathepsin H,"competitive inhibitor, Lineweaver-Burk plot",goat liver enzyme,"pH 7.0, together with: Leu-βNA substrate",66 ± 0.3
"O=C(c1ccc(F)cc1)C1CCN(C2Cc3c(O)cccc3CC2O)CC1 (single isomer, unassigned; (+))",sigma-1 receptor,radioligand binding,,together with: [3H]pentazocine,3.08 ± 0.68
CC(=O)N[C@@H](C)C(=O)N[C@@H](CC(=O)O)C(=O)N[C@@H](CCCNC(=N)N)C(=O)N[C@H](C(=O)N[C@H](C=O)CC(=O)O)[C@@H](C)O,"Caspase-6 (CASP6, Homo sapiens, UniProt P55212)","enzyme activity, inhibitor, fluorescence",,pH 7,> 100
CNC(=O)C1CCN(c2ccccc2NC(=O)c2ccc(-c3cccc(O)c3)c(C)c2)CC1,"Ephrin type-A receptor 4 (EPHA4, Homo sapiens, UniProt P54764)","enzyme activity, inhibitor",,,0.045
O=C(O)c1cccc(CS(=O)(=O)NCc2cn(CB(O)O)nn2)c1,"Beta-lactamase ADC-7 (Acinetobacter baumannii, UniProt Q6DRA1)","enzyme activity, inhibitor",,together with: nitrocefin,0.31 ± 0.02
CCCCCCCCCCCCCCCC(=O)OCCCC,"pheromone-binding protein 1 (Lymantria dispar, UniProt O16105)","binding, competitive fluorescence binding",,"pH 7.3, pheromone-binding protein 1, together with: 1-NPN probe",3.81 ± 0.04
COC(=O)C1(C)C=C(C(=O)OCc2ccccc2)C(=O)CC1 (stereo not drawn),MAPK14,"ligand displacement, FP",,,5.4
CNC(=O)C[C@@H]1C(=O)N(Cc2ccc(-c3ccccc3)cc2)C2=CCCC[C@]21C(=O)O (relative stereo),"Fumarate hydratase, mitochondrial (FH, Homo sapiens, UniProt P07954)","enzyme activity, inhibitor, absorbance",,,4.5
CCCCSC[C@H]1CN(Cc2c[nH]c3c(N)ncnc23)C[C@@H]1O,"Aminodeoxyfutalosine nucleosidase (Helicobacter pylori, UniProt Q9ZMY2)","enzyme activity, inhibitor",,initial,0.00079 ± 4e-05
COc1cc(Cc2cnc(N)nc2N)cc(/C=C/C(=O)N2N=Cc3ccccc3C2c2cccc(F)c2)c1OC (stereo not drawn),"Dihydrofolate reductase (Enterococcus faecalis, UniProt Q834R2)","enzyme activity, inhibitor",,together with: dihydrofolate (Km 10.9 µM),0.0048
C=C1CC2(C(=O)OC)C=C(C(=O)OC(C)(C)C)C(=O)C1C2 (stereo not drawn),MAPK14,"ligand displacement, FP",,,0.6
COc1ccccc1/C=C/C(=N/NC(N)=O)c1ccccc1,cathepsin H,"competitive inhibitor, Lineweaver-Burk plot",goat liver enzyme,"pH 7.0, together with: Leu-βNA substrate",66 ± 0.7
Cc1cc(N)nc(C[C@H]2CNC[C@H]2OCCC/C=C/c2cccc(F)c2)c1,Nos1,"enzyme activity, inhibitor",,pH 7.4,15.4
Cc1cc(N)nc(CC2CNCC2OCCNCC(F)(F)c2ccc(F)cc2)c1 (stereo not drawn),Nos1,"enzyme activity, inhibitor, hemoglobin capture",,,0.16

# Repeated from above:
Structure (SMILES),target,assay,system,setting,Ki [µM]
COc1cccc(/C=C/C(=N\NC(N)=O)c2ccccc2)c1,cathepsin H,"competitive inhibitor, Lineweaver-Burk plot",goat liver enzyme,"pH 7.0, together with: Leu-βNA substrate",66 ± 0.3
